Assay results pooled from the literature.
Every numbered part comes from another study and shows a few of its results, in no order.

Series 1
Target: Sal-like protein 4, full length isoform A (SALL4, Homo sapiens, UniProt Q9UJQ4, residues 1-1053)
Chain of UniProt Q9UJQ4 (whole entry, looked up): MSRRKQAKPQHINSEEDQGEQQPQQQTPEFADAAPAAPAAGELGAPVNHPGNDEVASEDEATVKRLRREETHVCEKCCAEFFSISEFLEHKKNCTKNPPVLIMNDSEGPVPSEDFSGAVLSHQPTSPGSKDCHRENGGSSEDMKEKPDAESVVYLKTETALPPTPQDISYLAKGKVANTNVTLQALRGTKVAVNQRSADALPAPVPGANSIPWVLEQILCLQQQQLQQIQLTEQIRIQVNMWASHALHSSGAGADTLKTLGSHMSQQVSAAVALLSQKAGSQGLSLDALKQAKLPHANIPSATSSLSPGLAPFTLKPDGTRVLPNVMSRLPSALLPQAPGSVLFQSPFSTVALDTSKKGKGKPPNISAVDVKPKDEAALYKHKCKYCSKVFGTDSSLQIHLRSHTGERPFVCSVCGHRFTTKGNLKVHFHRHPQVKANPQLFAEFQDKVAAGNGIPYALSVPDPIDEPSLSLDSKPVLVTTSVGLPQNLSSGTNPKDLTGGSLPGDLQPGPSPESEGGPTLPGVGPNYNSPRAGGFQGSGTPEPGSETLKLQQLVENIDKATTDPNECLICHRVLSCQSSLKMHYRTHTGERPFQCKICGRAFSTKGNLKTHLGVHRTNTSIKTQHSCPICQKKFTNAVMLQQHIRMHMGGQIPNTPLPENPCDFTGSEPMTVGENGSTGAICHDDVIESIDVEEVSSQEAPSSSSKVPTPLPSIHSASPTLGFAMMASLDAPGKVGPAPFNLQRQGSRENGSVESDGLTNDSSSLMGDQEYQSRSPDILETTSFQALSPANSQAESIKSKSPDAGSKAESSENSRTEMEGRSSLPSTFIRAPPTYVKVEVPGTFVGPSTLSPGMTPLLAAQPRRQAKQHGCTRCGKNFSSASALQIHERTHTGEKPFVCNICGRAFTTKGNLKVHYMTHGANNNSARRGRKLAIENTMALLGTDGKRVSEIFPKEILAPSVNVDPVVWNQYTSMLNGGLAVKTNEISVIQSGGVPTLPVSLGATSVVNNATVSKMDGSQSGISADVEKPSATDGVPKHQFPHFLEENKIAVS
Technique: universal PBM
Molecule type: double-stranded DNA, one strand shown
Matrix: in vitro
Tested at: 600 nM
Setting: 8-mer, flanks averaged, mean of replicates
Reading: higher = stronger binding
Endpoint: E-score
Oligonucleotide = ATTAGCCC; value = 0.012
Oligonucleotide = AACTGAAT; value = 0.098
Oligonucleotide = ATAAAAAA; value = 0.343
Oligonucleotide = CTCCGAAG; value = -0.208
Oligonucleotide = CCGACAAG; value = -0.0808

Series 2
Target: Histone acetyltransferase KAT6A, winged helix 1, GST fusion (KAT6A, Homo sapiens, UniProt Q92794, residues 1-85)
Technique: protein binding microarray
Molecule type: double-stranded DNA, one strand shown
Matrix: in vitro
Tested at: not given
Setting: 8-mer, flanks averaged, mean of 2 arrays, mostly near background
Relative to: not given
Reading: higher = stronger binding
Endpoint: E-score
Construct (chain): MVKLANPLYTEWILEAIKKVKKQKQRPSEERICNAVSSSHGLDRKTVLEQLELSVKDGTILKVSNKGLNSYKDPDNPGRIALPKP
Oligonucleotide = CAAGCTAG; value = -0.223
Oligonucleotide = ATGCGAAA; value = -0.0496
Oligonucleotide = AATATTAT; value = -0.08
Oligonucleotide = TATGCCCA; value = -0.274
Oligonucleotide = CGACGCAA; value = 0.303

Series 3
Target: Interferon regulatory factor 5, full length, phosphomimetic (IRF5, Homo sapiens, UniProt Q13568-2, residues 1-514, K96S/S451D/S453D/S456D/S462D)
Technique: protein-binding microarray
Molecule type: double-stranded DNA, one strand shown
Matrix: in vitro
Tested at: 250 nM
Setting: 60-bp whole probe
Added: salmon DNA 0.4 mg/ml
Relative to: random background probes
Reading: higher = stronger binding
Endpoint: log fluorescence
Oligonucleotide = GCCTAGCACGACGGTTCCGGTCTCGGGACGTGCTAGGTCTTGATTCGCTTGACGCTGCTG; value = 0.747 z-score
Oligonucleotide = GCCTAGCACGACGGTTTCCTTATCCTGGCGTGCTAGGTCTTGATTCGCTTGACGCTGCTG; value = 0.779 z-score
Oligonucleotide = GCCTAGCACGACGGTTTCGGACGGGGGACGTGCTAGGTCTTGATTCGCTTGACGCTGCTG; value = 4.4 z-score
Oligonucleotide = GCCTAGCACTTAGGTTCCGGACTGGGTTAGTGCTAGGTCTTGATTCGCTTGACGCTGCTG; value = 0.139 z-score

Further values, each from its own experiment
Molecule = PhoQ, residues 284 288 289 292 302 303 SSLVEF; target = PhoP, residues 12 14 15 18 19 NHFRA (Escherichia coli, UniProt P23836); test = Sort-seq, measured: YFP reporter; test system = E. coli; conditions = PhoQ-PhoP variant library, added: 10 µM Mg2+; scale = relative to: high Mg2+ state, higher = stronger signaling; endpoint = fold induction; value = 2.02

Repeated from above (series 1):
Oligonucleotide = ATAAAAAA; value = 0.343
